Measurements pooled from the literature.
Protocols differ between the studies behind these lines.
T1: RNA aptamer; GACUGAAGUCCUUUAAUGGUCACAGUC
T2: RNA aptamer GAA^A junction to GAG^A; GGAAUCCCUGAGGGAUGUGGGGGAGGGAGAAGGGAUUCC
T3: RNA aptamer U54G; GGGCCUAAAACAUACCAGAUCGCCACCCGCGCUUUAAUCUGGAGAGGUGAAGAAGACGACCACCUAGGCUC
T4: RNA aptamer; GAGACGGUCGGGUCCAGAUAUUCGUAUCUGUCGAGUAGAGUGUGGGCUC
T5: RNA aptamer; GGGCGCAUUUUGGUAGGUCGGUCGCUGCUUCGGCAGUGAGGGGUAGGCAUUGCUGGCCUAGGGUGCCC
T6: RNA aptamer A13U; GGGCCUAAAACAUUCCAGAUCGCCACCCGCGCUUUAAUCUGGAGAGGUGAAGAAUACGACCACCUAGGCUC
T7: RNA aptamer, tobramycin-binding; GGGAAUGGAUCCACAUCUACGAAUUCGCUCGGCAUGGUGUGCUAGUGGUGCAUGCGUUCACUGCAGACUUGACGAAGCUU
T8: RNA aptamer; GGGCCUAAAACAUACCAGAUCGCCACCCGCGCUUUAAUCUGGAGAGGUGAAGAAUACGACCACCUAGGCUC
T9: RNA aptamer, 2'-F pyrimidines; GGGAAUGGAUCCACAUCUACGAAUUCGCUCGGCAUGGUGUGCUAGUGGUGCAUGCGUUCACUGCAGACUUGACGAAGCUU
T10: RNA aptamer; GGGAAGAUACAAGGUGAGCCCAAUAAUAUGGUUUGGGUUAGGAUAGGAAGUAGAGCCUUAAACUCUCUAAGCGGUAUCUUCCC

NC[C@@H]1O[C@H](O[C@H]2[C@@H](O)[C@H](O[C@@H]3[C@@H](O)[C@H](N)C[C@H](N)[C@H]3O[C@H]3O[C@H](CN)[C@@H](O)[C@H](O)[C@H]3N)O[C@@H]2CO)[C@H](N)[C@@H](O)[C@@H]1O
binding (T1, RNA aptamer; ITC; NaCl 200 mM): binds weakly

CN1C=C/C(=C/C=C/c2sc3ccccc3[n+]2CC(=O)NCCOCCOCCOCCNC(=O)CCCC[C@@H]2SC[C@@H]3NC(=O)N[C@@H]32)c2ccccc21
binding (T2, RNA aptamer GAA^A junction to GAG^A; fluorescence titration): binds weakly

CN(C)[C@@H]1C(=O)C(C(N)=O)=C(O)[C@@]2(O)C(=O)C3=C(O)c4c(O)cccc4[C@@](C)(O)[C@H]3C[C@@H]12
Kd (T3, RNA aptamer U54G; fluorescence titration; pH 7.5, 25 °C, MgCl2 10 mM): 2.63 nM

CC1=N/C(=C\c2ccc(OCc3ccc(B(O)O)cc3)c(F)c2)C(=O)N1C
binding (T4, RNA aptamer; competition with tracer, competitor, fluorescence quenching): binds weakly

Nc1nc2c(ncn2[C@@H]2O[C@H](COP(=O)(O)OP(=O)(O)OP(=O)(O)O)[C@@H](O)[C@H]2O)c(=O)[nH]1
binding (T5, RNA aptamer; ITC; pH 6.5, 20 °C, NaCl 50 mM): binds weakly

CN(C)C1C(O)=C(C#N)C(=O)C2(O)C(O)=C3C(=O)c4c(O)cccc4C(C)(O)C3CC12 (stereo not shown)
Kd (T6, RNA aptamer A13U; fluorescence titration; pH 7.5, 25 °C, MgCl2 10 mM): 1700 nM

CN[C@@H]1[C@H](O[C@H]2[C@H](O[C@H]3[C@H](O)[C@@H](O)[C@H](N=C(N)N)[C@@H](O)[C@@H]3N=C(N)N)O[C@@H](C)[C@]2(O)C=NNC(=O)CCOCCOCCOCCOCCNC(=O)CCCC[C@@H]2SC[C@@H]3NC(=O)N[C@@H]32)O[C@@H](CO)[C@H](O)[C@H]1O
Kd (T7, RNA aptamer, tobramycin-binding; SPR; apparent): 9.68 nM

C[C@H]1c2cccc(O)c2C(O)=C2C(=O)[C@]3(O)C(O)=C(C(N)=O)C(=O)C[C@@H]3[C@@H](O)[C@@H]21
Kd (T8, RNA aptamer; fluorescence titration; pH 7.5, 25 °C, MgCl2 10 mM): 547 nM

CNC1C(OC2OC(CO)C(N)C(O)C2O)OC2CC(N)C(OC3C(N)CC(NC(=O)CCOCCOCCOCCOCCOCCOCCOCCOCCOCCOCCOCCOCCNC(=O)CCCC[C@@H]4SC[C@@H]5NC(=O)N[C@@H]54)C(O)C3O)OC2C1O (stereo partly shown)
Kd (T9, RNA aptamer, 2'-F pyrimidines; SPR; apparent): 58.4 nM

CC1=N/C(=C\c2cc(Br)c(OC(=O)c3ccccc3SSc3ccccn3)c(Br)c2)C(=O)N1C
binding (T10, RNA aptamer; competition with tracer, competitor, fluorescence quenching): binds weakly

For quick reference, copied from above:
CN(C)C1C(O)=C(C#N)C(=O)C2(O)C(O)=C3C(=O)c4c(O)cccc4C(C)(O)C3CC12 (stereo not shown)
Kd (T6, RNA aptamer A13U; fluorescence titration; pH 7.5, 25 °C, MgCl2 10 mM): 1700 nM
